Measured values of several laboratories.
Parts stem from different laboratories: compare values within a part only. Several values in a cell are separate wells, animals, samples, runs or records.
UniProt Q9UM73, sequence (whole entry, unmodified, looked up): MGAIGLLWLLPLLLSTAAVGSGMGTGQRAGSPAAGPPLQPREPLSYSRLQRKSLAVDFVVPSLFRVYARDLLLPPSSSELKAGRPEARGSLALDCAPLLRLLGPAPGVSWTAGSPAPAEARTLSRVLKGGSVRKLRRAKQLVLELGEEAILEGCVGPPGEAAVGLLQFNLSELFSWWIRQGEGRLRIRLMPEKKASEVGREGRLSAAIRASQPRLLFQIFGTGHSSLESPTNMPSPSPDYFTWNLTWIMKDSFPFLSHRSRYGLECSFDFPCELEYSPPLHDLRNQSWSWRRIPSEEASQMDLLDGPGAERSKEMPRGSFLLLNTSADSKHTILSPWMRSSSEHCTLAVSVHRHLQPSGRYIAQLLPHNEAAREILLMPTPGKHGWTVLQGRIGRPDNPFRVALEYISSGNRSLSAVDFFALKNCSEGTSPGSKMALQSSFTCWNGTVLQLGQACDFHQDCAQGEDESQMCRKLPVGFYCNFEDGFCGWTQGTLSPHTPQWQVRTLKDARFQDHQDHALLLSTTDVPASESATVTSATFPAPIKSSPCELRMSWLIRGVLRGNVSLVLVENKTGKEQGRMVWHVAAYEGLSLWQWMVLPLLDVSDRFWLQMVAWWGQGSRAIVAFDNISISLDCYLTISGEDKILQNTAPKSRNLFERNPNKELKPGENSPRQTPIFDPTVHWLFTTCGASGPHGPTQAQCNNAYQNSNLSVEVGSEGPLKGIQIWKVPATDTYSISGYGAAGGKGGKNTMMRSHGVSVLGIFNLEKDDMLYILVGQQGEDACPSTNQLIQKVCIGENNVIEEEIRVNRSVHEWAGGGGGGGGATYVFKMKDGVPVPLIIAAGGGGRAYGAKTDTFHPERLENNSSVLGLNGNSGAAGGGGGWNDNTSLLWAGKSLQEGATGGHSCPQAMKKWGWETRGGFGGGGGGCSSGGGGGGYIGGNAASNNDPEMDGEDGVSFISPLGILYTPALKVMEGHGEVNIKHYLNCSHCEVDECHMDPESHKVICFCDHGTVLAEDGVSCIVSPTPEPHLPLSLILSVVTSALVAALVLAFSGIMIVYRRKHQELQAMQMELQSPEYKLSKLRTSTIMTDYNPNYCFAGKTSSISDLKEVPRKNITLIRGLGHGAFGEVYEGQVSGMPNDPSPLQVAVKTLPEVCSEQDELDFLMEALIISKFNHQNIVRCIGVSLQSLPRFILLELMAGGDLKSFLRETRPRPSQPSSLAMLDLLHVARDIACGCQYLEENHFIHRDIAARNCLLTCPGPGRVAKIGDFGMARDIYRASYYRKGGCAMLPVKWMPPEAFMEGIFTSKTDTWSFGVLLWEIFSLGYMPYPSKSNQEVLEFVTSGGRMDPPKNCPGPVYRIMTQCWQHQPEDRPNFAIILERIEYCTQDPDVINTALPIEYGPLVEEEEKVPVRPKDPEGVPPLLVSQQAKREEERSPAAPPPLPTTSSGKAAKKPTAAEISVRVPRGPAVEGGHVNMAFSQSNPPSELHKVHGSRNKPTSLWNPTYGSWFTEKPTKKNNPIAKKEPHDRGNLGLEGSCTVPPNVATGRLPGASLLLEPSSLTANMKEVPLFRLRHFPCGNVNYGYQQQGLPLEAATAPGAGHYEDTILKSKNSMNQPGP
UniProt O75582, sequence (whole entry, looked up): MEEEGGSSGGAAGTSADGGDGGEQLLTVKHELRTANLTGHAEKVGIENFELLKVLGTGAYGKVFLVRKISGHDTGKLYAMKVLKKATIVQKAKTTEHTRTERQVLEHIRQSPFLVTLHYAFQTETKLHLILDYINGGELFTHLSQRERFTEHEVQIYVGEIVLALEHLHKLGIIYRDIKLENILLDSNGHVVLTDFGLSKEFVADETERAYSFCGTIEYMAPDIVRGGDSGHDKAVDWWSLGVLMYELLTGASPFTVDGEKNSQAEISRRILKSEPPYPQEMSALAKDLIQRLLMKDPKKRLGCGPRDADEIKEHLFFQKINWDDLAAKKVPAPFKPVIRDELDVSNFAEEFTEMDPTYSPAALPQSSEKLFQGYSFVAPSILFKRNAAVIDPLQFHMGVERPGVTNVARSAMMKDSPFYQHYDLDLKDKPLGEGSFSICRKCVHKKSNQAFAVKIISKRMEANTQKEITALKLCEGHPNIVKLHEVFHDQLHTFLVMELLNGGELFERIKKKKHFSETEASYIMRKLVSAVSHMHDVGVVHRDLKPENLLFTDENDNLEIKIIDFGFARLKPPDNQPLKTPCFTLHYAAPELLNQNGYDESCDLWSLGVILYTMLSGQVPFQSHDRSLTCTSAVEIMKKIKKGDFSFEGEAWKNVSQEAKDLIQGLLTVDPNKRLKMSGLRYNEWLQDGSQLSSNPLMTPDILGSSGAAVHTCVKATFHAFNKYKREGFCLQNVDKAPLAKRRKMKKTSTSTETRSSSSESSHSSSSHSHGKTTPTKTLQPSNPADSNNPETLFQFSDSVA
UniProt P10721, sequence (whole entry, unmodified, looked up): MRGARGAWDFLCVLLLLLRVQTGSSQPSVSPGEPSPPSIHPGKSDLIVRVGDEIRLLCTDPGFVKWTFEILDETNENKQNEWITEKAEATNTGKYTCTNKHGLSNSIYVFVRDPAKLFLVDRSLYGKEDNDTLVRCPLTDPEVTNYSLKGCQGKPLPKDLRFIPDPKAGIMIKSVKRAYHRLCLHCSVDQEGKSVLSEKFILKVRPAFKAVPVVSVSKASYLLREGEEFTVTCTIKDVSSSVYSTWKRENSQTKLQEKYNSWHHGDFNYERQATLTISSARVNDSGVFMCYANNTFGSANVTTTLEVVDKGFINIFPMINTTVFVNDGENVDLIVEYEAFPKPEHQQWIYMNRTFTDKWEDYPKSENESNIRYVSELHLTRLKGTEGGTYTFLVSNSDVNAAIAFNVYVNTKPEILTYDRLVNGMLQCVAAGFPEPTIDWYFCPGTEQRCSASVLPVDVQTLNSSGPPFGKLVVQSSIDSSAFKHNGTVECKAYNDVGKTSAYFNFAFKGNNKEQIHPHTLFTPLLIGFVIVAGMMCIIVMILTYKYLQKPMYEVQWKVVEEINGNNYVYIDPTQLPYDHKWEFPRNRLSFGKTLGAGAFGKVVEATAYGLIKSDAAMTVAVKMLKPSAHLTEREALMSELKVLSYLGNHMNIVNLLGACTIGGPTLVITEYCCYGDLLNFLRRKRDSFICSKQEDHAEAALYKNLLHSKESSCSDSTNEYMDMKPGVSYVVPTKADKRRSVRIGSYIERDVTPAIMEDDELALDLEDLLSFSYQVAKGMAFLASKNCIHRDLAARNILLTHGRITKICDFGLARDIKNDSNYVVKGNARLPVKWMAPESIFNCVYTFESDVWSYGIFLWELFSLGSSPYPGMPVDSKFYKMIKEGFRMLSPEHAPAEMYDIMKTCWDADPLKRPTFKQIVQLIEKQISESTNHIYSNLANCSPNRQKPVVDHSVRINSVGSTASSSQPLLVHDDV
UniProt O43283, sequence (whole entry, looked up): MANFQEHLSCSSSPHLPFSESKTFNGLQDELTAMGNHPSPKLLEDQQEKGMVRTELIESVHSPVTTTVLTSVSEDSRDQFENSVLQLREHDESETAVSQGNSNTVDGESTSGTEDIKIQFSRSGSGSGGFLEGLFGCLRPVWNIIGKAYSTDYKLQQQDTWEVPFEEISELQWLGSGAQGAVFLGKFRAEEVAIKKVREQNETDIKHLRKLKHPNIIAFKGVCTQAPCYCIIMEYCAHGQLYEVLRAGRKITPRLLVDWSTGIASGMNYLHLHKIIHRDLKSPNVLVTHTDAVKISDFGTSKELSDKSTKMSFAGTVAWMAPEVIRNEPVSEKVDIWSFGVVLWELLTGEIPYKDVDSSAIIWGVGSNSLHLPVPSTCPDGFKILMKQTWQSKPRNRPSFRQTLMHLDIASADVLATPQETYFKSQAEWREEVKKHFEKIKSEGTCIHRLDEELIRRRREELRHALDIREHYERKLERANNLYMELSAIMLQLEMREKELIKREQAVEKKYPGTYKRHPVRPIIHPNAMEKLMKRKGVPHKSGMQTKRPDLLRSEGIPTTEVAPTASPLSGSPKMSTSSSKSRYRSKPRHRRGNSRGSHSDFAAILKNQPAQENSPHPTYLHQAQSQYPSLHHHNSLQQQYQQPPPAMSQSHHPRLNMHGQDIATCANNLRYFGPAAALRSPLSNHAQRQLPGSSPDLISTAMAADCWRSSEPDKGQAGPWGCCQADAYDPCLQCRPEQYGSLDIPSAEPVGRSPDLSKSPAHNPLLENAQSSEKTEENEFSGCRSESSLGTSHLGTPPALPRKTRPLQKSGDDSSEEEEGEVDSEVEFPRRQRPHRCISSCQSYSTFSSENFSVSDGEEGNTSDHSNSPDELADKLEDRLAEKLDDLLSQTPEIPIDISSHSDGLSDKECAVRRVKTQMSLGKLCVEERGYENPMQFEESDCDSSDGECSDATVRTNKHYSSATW

Set 1
SMILES: CO[C@@H](C)c1c(Nc2ccc([C@@H](N(C)C(=O)C3CCS(=O)(=O)CC3)C(F)(F)F)cc2)cnc2cc(Cl)nn12
Observed: cell-free assay
Technique: competition with immobilised ligand
Concentration: 1 µM
target	remaining binding [%]
EPHA6 (Homo sapiens, UniProt Q9UF33)	100
Ribosomal protein S6 kinase alpha-5, C-terminal kinase domain (RPS6KA5, Homo sapiens, UniProt O75582)	70
KIT (Homo sapiens, UniProt P10721, A829P)	100
STK17B (Homo sapiens, UniProt O94768)	98
BMPR1B (Homo sapiens, UniProt O00238)	100
PAK2 (Homo sapiens, UniProt Q13177)	81
ALK (Homo sapiens, UniProt Q9UM73, C1156Y)	79
ALK (Homo sapiens, UniProt Q9UM73)	100
BTK (Homo sapiens, UniProt Q06187)	100
CDK2 (Homo sapiens, UniProt P24941)	100
SYK (Homo sapiens, UniProt P43405)	90
RET (Homo sapiens, UniProt P07949, M918T)	85
MAP3K13 (Homo sapiens, UniProt O43283)	100
MTOR (Homo sapiens, UniProt P42345)	100
PDGFRB (Homo sapiens, UniProt P09619)	100
EIF2AK2 (Homo sapiens, UniProt P19525)	88

Set 2
Species: human
Matrix: microsomes or S9
Concentration: 2 µM
Time: 0.5 h
SMILES	remaining compound [%]
NC(N)=NC(=O)c1coc(-c2cc(F)cc(F)c2)c1	> 99.9
O=C(Cn1cnc2ccccc21)NCc1n[nH]c(=O)c2ccccc12	> 100
Cc1cc2cc(NC(=O)c3cc4nccc(-c5cnn(C)c5C)n4n3)cc(Cl)c2o1	18.8
COc1cc(=O)[nH]cc1C(=O)N1CCOC(C)(c2ccccc2)C1 (stereo not shown)	96.5
Cc1cc2nnc(SC3CC(C)OC3=O)n2c(C)n1 (stereo not shown)	77
Cc1cnn(C2CCN(C(=O)c3ccc(-c4cc[nH]n4)s3)C2)c1 (stereo not shown)	64.4
CN1C(=O)N(C)C2(CCN(CCOc3ccccc3)C2)C1=O (stereo not shown)	98.6
Cc1ncsc1CCOC(=O)c1ccc(Cl)cc1	0.204

Set 3
SMILES: CC(=O)N[C@@H](Cc1c[nH]c2ccccc12)C(=O)N[C@@H](CCC(=O)C=[N+]=[N-])C(=O)OC(C)C
Species: mouse
Matrix: EL4 tumour
Dose: dose not given
item	normalized intensity
adenine	-0.339 and -0.464 and -0.389 and -0.373 and -0.336 and -0.264
succinate	-0.0665 and -0.23 and -0.0795 and -0.228 and -0.317 and -0.0274
adenosine	-0.0221 and -0.139 and -0.18 and -0.0803 and -0.146 and -0.0263
kynurenine	0.0811 and 0.13 and 0.0656 and -0.179 and -0.219 and 0.143
glutamate	-0.0662 and 0.0482 and 0.0678 and -0.0135 and -0.155 and 0.0394

Set 4
Target: Beta-1 adrenergic receptor (ADRB1, Homo sapiens, UniProt P08588)
UniProt P08588, sequence (whole entry, looked up): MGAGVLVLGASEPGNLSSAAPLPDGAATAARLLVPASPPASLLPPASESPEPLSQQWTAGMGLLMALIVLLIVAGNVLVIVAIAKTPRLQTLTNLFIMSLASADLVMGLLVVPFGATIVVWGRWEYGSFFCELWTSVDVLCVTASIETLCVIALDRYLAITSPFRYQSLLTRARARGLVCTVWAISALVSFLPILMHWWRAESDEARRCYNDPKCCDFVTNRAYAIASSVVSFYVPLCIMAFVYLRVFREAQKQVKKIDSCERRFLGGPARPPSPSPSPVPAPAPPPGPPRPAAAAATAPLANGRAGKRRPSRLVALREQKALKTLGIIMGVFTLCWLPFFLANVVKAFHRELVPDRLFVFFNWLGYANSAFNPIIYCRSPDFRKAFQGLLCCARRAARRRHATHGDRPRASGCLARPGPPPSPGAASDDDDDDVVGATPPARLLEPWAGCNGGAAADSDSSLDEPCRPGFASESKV
Action: agonist
SMILES	EC50
CC(C)CN1C(=O)COC[C@@H]1[C@H](O)c1ccc(NC(=O)CCc2ccccc2)cc1	≥ 100 µM
Cc1noc2c(-c3ccc([S+](C)(=O)[O-])cc3)cc(-c3ccc(F)cc3)nc12	≥ 100 µM
Cc1cc(-c2ccccc2)nc2ccccc12	≥ 100 µM
Cc1ccc(CNc2ncnc3[nH]ncc23)o1	≥ 100 µM
FC(F)(F)c1cccc(C2=NOC3(CCN(Cc4ccsc4)C3)C2)c1 (stereo not shown)	≥ 100 µM

Repeated from above (set 1):
target	remaining binding [%]
STK17B (Homo sapiens, UniProt O94768)	98
BMPR1B (Homo sapiens, UniProt O00238)	100
PAK2 (Homo sapiens, UniProt Q13177)	81
